{"data": "Measured values collected from several papers", "note": "Several values in a cell are separate wells, animals, samples, runs or records. Numbers after ± are the reported error."}
{"Structure (SMILES)": "O=C(C[Se]C(=O)c1cccs1)Nc1cccc(C(F)(F)F)c1", "cell line": "NCI60 colon subpanel", "assay": "NCI60 five-dose screen", "quantity": "CC50", "value": "18.9 µM"}
{"Structure (SMILES)": "CC(C)(C)C(=O)OCOP(=O)(OCOC(=O)C(C)(C)C)C1CCCN(O)C1=O (stereo not shown)", "cell line": "HCT-15", "quantity": "log LC50", "value": "> -4 log M"}
{"Structure (SMILES)": "CC(C)CC(O)(CC(C)C)c1cn(C(=O)N2CCCC2)nn1", "cell line": "mouse T-cells", "assay": "SILAC proteomics, refers to: Tpi1", "conditions": "1 nM, 6 h, single peptides, unit not given", "how to read": "baseline: DMSO", "quantity": "protein level", "value": "1.06 and 1.2"}
{"Structure (SMILES)": "Cc1cc(Oc2nc(N3CC[C@@H](c4ccncc4)C3)ncc2F)[nH]n1", "cell line": "UO-31", "assay": "cell proliferation", "system": "kidney cancer", "quantity": "IC50", "value": "41.7 µM"}
{"Structure (SMILES)": "O=C(C[Se]C(=O)c1cc2ccccc2[nH]1)Nc1cccc(C(F)(F)F)c1", "cell line": "NCI60 breast subpanel", "assay": "NCI60 five-dose screen", "quantity": "CC50", "value": "11.1 µM"}
{"Structure (SMILES)": "O=c1n(CCNCCOS(=O)(=O)c2ccccc2)c(=O)n(S(=O)(=O)c2ccccc2)c(=O)n1S(=O)(=O)c1ccccc1", "cell line": "A549", "assay": "cell growth or viability, MTT", "conditions": "200 µg/mL, 48 h", "quantity": "viability", "value": "12.8%"}
{"Structure (SMILES)": "CSCC[C@H](N)C(=O)N[C@@H](C)C(=O)N[C@@H](Cc1c[nH]c2ccccc12)C(=O)N[C@@H](Cc1c[nH]cn1)C(=O)N[C@@H](CC(=O)O)C(=O)N[C@@H](CC(=O)O)C(=O)N[C@@H](CCC(=O)O)C(=O)N[C@@H](CCC(=O)O)C(=O)N[C@@H](Cc1ccccc1)C(=O)N[C@@H](C)C(=O)N[C@@H](CCCNC(=N)N)C(=O)N[C@@H](CCCNC(=N)N)C(=O)N[C@@H](CCCNC(=N)N)C(=O)N[C@@H](CCCNC(=N)N)C(=O)NCCCCCC(=O)NCCCCC(NC(=O)CCCCCNC(=O)[C@H](CCCNC(=N)N)NC(=O)[C@H](CCCNC(=N)N)NC(=O)[C@H](CCCNC(=N)N)NC(=O)[C@H](CCCNC(=N)N)NC(=O)[C@H](C)NC(=O)[C@H](Cc1ccccc1)NC(=O)[C@H](CCC(=O)O)NC(=O)[C@H](CCC(=O)O)NC(=O)[C@H](CC(=O)O)NC(=O)[C@H](CC(=O)O)NC(=O)[C@H](Cc1c[nH]cn1)NC(=O)[C@H](Cc1c[nH]c2ccccc12)NC(=O)[C@H](C)NC(=O)[C@@H](N)CCSC)C(=O)NCCCCC(NC(=O)C(CCCCNC(=O)CCCCCNC(=O)[C@H](CCCNC(=N)N)NC(=O)[C@H](CCCNC(=N)N)NC(=O)[C@H](CCCNC(=N)N)NC(=O)[C@H](CCCNC(=N)N)NC(=O)[C@H](C)NC(=O)[C@H](Cc1ccccc1)NC(=O)[C@H](CCC(=O)O)NC(=O)[C@H](CCC(=O)O)NC(=O)[C@H](CC(=O)O)NC(=O)[C@H](CC(=O)O)NC(=O)[C@H](Cc1c[nH]cn1)NC(=O)[C@H](Cc1c[nH]c2ccccc12)NC(=O)[C@H](C)NC(=O)[C@@H](N)CCSC)NC(=O)CCCCCNC(=O)[C@H](CCCNC(=N)N)NC(=O)[C@H](CCCNC(=N)N)NC(=O)[C@H](CCCNC(=N)N)NC(=O)[C@H](CCCNC(=N)N)NC(=O)[C@H](C)NC(=O)[C@H](Cc1ccccc1)NC(=O)[C@H](CCC(=O)O)NC(=O)[C@H](CCC(=O)O)NC(=O)[C@H](CC(=O)O)NC(=O)[C@H](CC(=O)O)NC(=O)[C@H](Cc1c[nH]cn1)NC(=O)[C@H](Cc1c[nH]c2ccccc12)NC(=O)[C@H](C)NC(=O)[C@@H](N)CCSC)C(N)=O (stereo partly shown)", "cell line": "mouse bone marrow macrophages", "conditions": "concentration not given, mean, together with: RANKL without NaSal", "how to read": "baseline: RANKL alone", "quantity": "osteoclastogenesis", "value": "49.3%"}
{"Structure (SMILES)": "CC(C)C[C@H](NC(=O)[C@H](CC(=O)O)NC(=O)CNC(=O)[C@@H](N)CCCNC(=N)N)C(=O)N[C@@H](C)C(=O)N[C@H](C(=O)N[C@@H](CC(C)C)C(=O)N[C@@H](CCCNC(=N)N)C(=O)N[C@@H](CCC(N)=O)C(=O)N[C@@H](CC(C)C)C(=O)N[C@@H](C)C(=O)N[C@@H](CCC(N)=O)C(=O)N[C@@H](CCC(=O)O)C(=O)N[C@@H](CC(=O)O)C(=O)NCC(=O)N[C@H](C(=O)N[C@H](C(=O)NCC(=O)N[C@H](C(=O)N[C@@H](CCCNC(=N)N)C(=O)NCCOCCOCCOCCOCCOCCOCCOCCOCCOCCOCCOCCOCCC(=O)N[C@@H](CS)C(N)=O)C(C)C)C(C)C)C(C)C)[C@@H](C)O", "cell line": "H1437 lung adenocarcinoma", "assay": "cell binding, phage binding, refers to: output/input phage", "conditions": "10 min, 37 °C", "how to read": "baseline: control phage", "quantity": "selectivity ratio", "value": "2.3 ± 0.96"}
{"Structure (SMILES)": "Cc1ccc(C(C)C)cc1.Cc1ccc(C(C)C)cc1.Cc1ccc(C(C)C)cc1.Cc1ccc(C(C)C)cc1.O=S(=O)(O)C(F)(F)F.O=S(=O)(O)C(F)(F)F.O=S(=O)(O)C(F)(F)F.O=S(=O)(O)C(F)(F)F.c1ccc2c3c4ccccc4c(c2c1)-c1cn(nn1)-c1cc[n+](cc1)[Ru-]1[O]c2ccc4c5c(ccc(c25)=[O+]1)=[O+][Ru-]([O]4)[n+]1ccc(cc1)-n1cc(nn1)-c1c2ccccc2c(c2ccccc12)-c1cn(nn1)-c1cc[n+](cc1)[Ru-]1[O]c2ccc4c5c(ccc(c25)=[O+]1)=[O+][Ru-]([O]4)[n+]1ccc(cc1)-n1cc-3nn1", "cell line": "AGS", "assay": "cell growth, MTT", "conditions": "24 h, 20 µM preincubated in medium 0 h at 37 °C", "quantity": "IC50", "value": "2.1 ± 0.03 µM"}
{"Structure (SMILES)": "CC1CCC2C(C)C(OC(=O)CCC(=O)N3CCC(Nc4ccc(S(=O)(=O)NC(=O)c5ccc(N6CCN(CC7=C(c8ccc(Cl)cc8)CC(C)(C)CC7)CC6)cc5Oc5cnc6[nH]ccc6c5)cc4[N+](=O)[O-])CC3)OC3OC4(C)CCC1C32OO4 (stereo not shown)", "cell line": "KCL-22", "assay": "annexin V/PI flow cytometry, refers to: annexin V-/PI-", "conditions": "3.2 µM, 24 h", "quantity": "viable cells", "value": "30.3%"}
{"note": "Repeated from above:"}
{"Structure (SMILES)": "Cc1ccc(C(C)C)cc1.Cc1ccc(C(C)C)cc1.Cc1ccc(C(C)C)cc1.Cc1ccc(C(C)C)cc1.O=S(=O)(O)C(F)(F)F.O=S(=O)(O)C(F)(F)F.O=S(=O)(O)C(F)(F)F.O=S(=O)(O)C(F)(F)F.c1ccc2c3c4ccccc4c(c2c1)-c1cn(nn1)-c1cc[n+](cc1)[Ru-]1[O]c2ccc4c5c(ccc(c25)=[O+]1)=[O+][Ru-]([O]4)[n+]1ccc(cc1)-n1cc(nn1)-c1c2ccccc2c(c2ccccc12)-c1cn(nn1)-c1cc[n+](cc1)[Ru-]1[O]c2ccc4c5c(ccc(c25)=[O+]1)=[O+][Ru-]([O]4)[n+]1ccc(cc1)-n1cc-3nn1", "cell line": "AGS", "assay": "cell growth, MTT", "conditions": "24 h, 20 µM preincubated in medium 0 h at 37 °C", "quantity": "IC50", "value": "2.1 ± 0.03 µM"}
